Assay results pooled from the literature.
Each numbered part is a random draw from the data of one study; scales do not carry over between parts.

Study 1 — method: RNA Bind-n-Seq; molecule type: RNA; sample: in vitro; concentration: 1 µM; setting: whole 134-nt RNA, ends assumed; with: 150 mM KCl; reference: input library; reading: higher = stronger binding
Target: Ras GTPase-activating protein-binding protein 1, C-terminal RGG region (G3BP1, Homo sapiens, UniProt Q13283)
Sequence of UniProt Q13283 (whole entry, looked up): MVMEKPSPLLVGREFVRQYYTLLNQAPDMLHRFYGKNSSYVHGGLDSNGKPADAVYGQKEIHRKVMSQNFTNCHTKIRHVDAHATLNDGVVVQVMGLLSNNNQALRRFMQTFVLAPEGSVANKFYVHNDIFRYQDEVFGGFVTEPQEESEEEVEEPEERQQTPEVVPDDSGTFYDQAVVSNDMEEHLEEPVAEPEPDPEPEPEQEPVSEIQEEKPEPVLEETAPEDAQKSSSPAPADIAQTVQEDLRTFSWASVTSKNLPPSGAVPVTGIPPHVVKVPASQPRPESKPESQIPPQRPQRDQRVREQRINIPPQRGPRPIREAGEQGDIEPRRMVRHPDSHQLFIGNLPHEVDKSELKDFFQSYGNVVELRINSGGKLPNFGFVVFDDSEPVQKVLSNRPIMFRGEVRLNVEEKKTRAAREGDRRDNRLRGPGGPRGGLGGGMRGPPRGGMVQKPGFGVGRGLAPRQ
All sequences stand within: GGGAGUUCUACAGUCCGACGAUC … UGGAAUUCUCGGGUGUCAAGG
`AAGUCCUGUGCUACACAUCGUAUGUACCGAAUCGGUUUUUUUGGAAAGGUUUUUGGAAAGUAUUAUGUUACGCCGUUCGGAUCUGCACUU` gave a log2 enrichment of -2.16.
`AGUCCUGUGCUACACAUCGUAUGUACCGAAUCGGGAAAAAGGGAAAAAGGAAAAAGGAAAGUAUUAUGUUACGCCGUUCGGAUCUGCACU` gave a log2 enrichment of -1.83.
`GCAGGAAGUAAAAACAAAUGGAAAUGCUUCGGAUAGUGGCAGGGGUGGGGGUUGCUACGGAAAGGGUGGGAUGGGAGUGGGUAAAGAGUU` gave a log2 enrichment of 2.49.
`AAGUCCUGUGCUACACAUCGUAUGUACCGAAUCAAACCCAAACCCAAAUUUUUAAAAAAGUAUUAUGUUACGCCGUUCGGAUCUGCACUU` gave a log2 enrichment of -0.919.
With `AGGCCCUGGUGGCAUGCGGGGAGGAAGAGGUGGCCUCAUGGAUCGUGGUGGUCCCGGUGGAAUGUUCAGAGGUGGCCGUGGUGGAGACAG` the log2 enrichment was 2.36.
`GCAGGAAGUAAAAACAAAUGGAAAUGCUUCGGUUAGUGGCAGGGGUGGGGGUUGCUAAGGAAAGGGUGGGAUGGGAGUGGGUAAAGAGUU` has a log2 enrichment of 1.41.
The log2 enrichment of `CCUGUGCUACACAUCGUAUGUACCGAAUCGGGGUUUUUUUGGGGUGGGGUUUUUUUGGGGAAAGUAUUAUGUUACGCCGUUCGGAUCUGC` is reported as 0.569.
`UCCUGUGCUACACAUCGUAUGUACCGAAUCGGCCCCCCGGGCCCCCCGGGCCCCCCGGGGAAAGUAUUAUGUUACGCCGUUCGGAUCUGC` has a log2 enrichment of -1.49.
The log2 enrichment of `CUCAAGUCCUGUGCUACACAUCGUAUGUACCGAAUCGGGCCGGGCCGGCCGGGAAAGUAUUAUGUUACGCCGUUCGGAUCUGCACUUCCA` is reported as -1.03.

Study 2 — method: protein binding microarray; molecule type: double-stranded DNA, one strand shown; sample: in vitro; concentration: not given; reference: not given; reading: higher = stronger binding
Target: Histone acetyltransferase KAT6A, winged helix 1, GST fusion (KAT6A, Homo sapiens, UniProt Q92794, residues 1-85)
Setting: 8-mer, flanks averaged, mean of 2 arrays, mostly near background
Construct (chain): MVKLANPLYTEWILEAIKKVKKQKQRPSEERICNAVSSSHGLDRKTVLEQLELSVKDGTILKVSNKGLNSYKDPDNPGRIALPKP
With `ACGAACAT` the E-score was -0.0608.
With `GCTTCGGA` the E-score was 0.0603.
The E-score of `GGTCTTTA` is reported as -0.000355.
For `AAAGCAGA`, the E-score was -0.274.
`AGGATCGG` gave an E-score of -0.0376.
With `CCTGGAGC` the E-score was -0.0586.
`CACAAAAG` has an E-score of -0.189.
The E-score of `CGATTGGC` is reported as -0.0176.
`GTAGAAAC` gave an E-score of -0.0046.
`CCTCCACA` has an E-score of -0.238.
For `CCGGTCAC`, the E-score was 0.165.
For `CACATCAA`, the E-score was -0.104.
`AAGTCTCT` gave an E-score of -0.314.
`AGTGGAAA` gave an E-score of -0.219.
For `CCAGATAC`, the E-score was -0.113.
For `AACCATGG`, the E-score was -0.000875.
`ATGATGAC` has an E-score of -0.156.

Study 3 — method: RNA Bind-n-Seq; molecule type: RNA; sample: in vitro; concentration: 365 nM; reference: no-protein control; reading: higher = stronger binding
Target: RNA binding protein fox-1 homolog 2, RRM domain, GST-SBP tag (RBFOX2, Homo sapiens, UniProt O43251-10, residues 100-194)
Setting: natural RNA segment, single round, ends assumed
All sequences stand within: GGGAGUUCUACAGUCCGACGAUC … UGGAAUUCUCGGGUGCCAA
Construct (chain): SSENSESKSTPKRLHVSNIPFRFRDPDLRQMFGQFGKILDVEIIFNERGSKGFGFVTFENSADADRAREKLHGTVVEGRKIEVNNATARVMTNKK
For `UGUACCUGUGGGUCUGUCCUCUGCUCUGUGCAGAUGGGUUUUACUGUCUGCUGUGUUUUCUUACGAAAAGAGUUUCGUUCUGCCAGUGCUGUGAGUUGGGAAUUCCUGCG`, “RBNS enrichment (R)” read 0.583.
For `UACCUAGAGAACAGGUGGUUUUUAAGGGUUAUCUUAGAUGUUUCACACCGGAAGGUUUUUAAACACUAAAAUAUAUAAUUUAUAGUUAAGGCUAAAAAGUAUAUUUAUUG`, “RBNS enrichment (R)” read 0.279.
For `CCACUCCACCUGCAAAAGACGAUGGCUCUGUUGUUCUUGGCUUCCUGGUGUGCUUUGAAGGCAGAUGAGCUGGUGAUUUCAUUGGGCACUUGGCCCUUUUCCAAGCACAU`, “RBNS enrichment (R)” read 0.483.
`AGUUUGAUUUGCCAGCAGUCAUACUGAGACUAGCUUGAUCCUACACCUGUUAGACAGUGGCAGAGAUAGGCCCAAGCUAAGUGGAGGCCAGGCCAGGCUGAGGGUGGGGC`: “RBNS enrichment (R)” 0.364.
`CAAGUGAAAAAGAAACACUGAGGUUUUAAGCUGCUGUAUAUAGCUUGUGAGAAACCUCUUUUCUUUAAAAUUUACAUAAUCACAAGAAAGGAAAGAAUUACAGUUGGACU`: “RBNS enrichment (R)” 0.405.
`UGGCACGCAGCCUCCGUCUCCGGGGCUCUCCGGGACUAGCUGCAAAACUUAUGCUCUAAACAUUUCUAGUUCCCCCAAACAACCUAGAGGCCUUGGGACUUCACAUCCCC` — result for “RBNS enrichment (R)”: 0.157.
Under “RBNS enrichment (R)”, `CUCAGCCUCCCUCCCAGGGCUCCAGAGCUCAGCUCUUCCUUUUCUAGAAGCAUGUGAAGAUGCCCAAGAGCCUGGAGACAUUGCCAUCCUUCCUACAGAAACUGUUUCUC` is recorded as 1.36.
Under “RBNS enrichment (R)”, `UAUAGUCUUCAGGUUCACAUGAACUUGGCUGUAUUCUGAUAACAUUGAGACCGUUUUCCACCAAGUUAGCCUCAUUUGUUCAGUAACACAUCUUACCGAGGAAAGGAGGC` is recorded as 0.243.

Further values, each from its own experiment
With `PhoQ, residues 284 288 289 292 302 303 SLANKL` the fold induction was 1.9 (PhoP, residues 12 14 15 18 19 LFHKL (Escherichia coli, UniProt P23836); Sort-seq, item: YFP reporter; E. coli; PhoQ-PhoP variant library, with: 10 µM Mg2+; reference: high Mg2+ state, higher = stronger signaling).

Repeated from above (study 3):
`AGUUUGAUUUGCCAGCAGUCAUACUGAGACUAGCUUGAUCCUACACCUGUUAGACAGUGGCAGAGAUAGGCCCAAGCUAAGUGGAGGCCAGGCCAGGCUGAGGGUGGGGC`: “RBNS enrichment (R)” 0.364.
For `UGUACCUGUGGGUCUGUCCUCUGCUCUGUGCAGAUGGGUUUUACUGUCUGCUGUGUUUUCUUACGAAAAGAGUUUCGUUCUGCCAGUGCUGUGAGUUGGGAAUUCCUGCG`, “RBNS enrichment (R)” read 0.583.
Under “RBNS enrichment (R)”, `UAUAGUCUUCAGGUUCACAUGAACUUGGCUGUAUUCUGAUAACAUUGAGACCGUUUUCCACCAAGUUAGCCUCAUUUGUUCAGUAACACAUCUUACCGAGGAAAGGAGGC` is recorded as 0.243.
For `CCACUCCACCUGCAAAAGACGAUGGCUCUGUUGUUCUUGGCUUCCUGGUGUGCUUUGAAGGCAGAUGAGCUGGUGAUUUCAUUGGGCACUUGGCCCUUUUCCAAGCACAU`, “RBNS enrichment (R)” read 0.483.
Under “RBNS enrichment (R)”, `CUCAGCCUCCCUCCCAGGGCUCCAGAGCUCAGCUCUUCCUUUUCUAGAAGCAUGUGAAGAUGCCCAAGAGCCUGGAGACAUUGCCAUCCUUCCUACAGAAACUGUUUCUC` is recorded as 1.36.
